Results from different studies.
Lines come from different studies, so protocols differ.
Organism: Pseudomonas aeruginosa

SMILES	test	test system	setting	how to read	MIC
CCCCCCCC[C@@H]1NC(=O)[C@@H](Cc2ccccc2)NC(=O)[C@H](CCN)NC(=O)[C@@H](NC(=O)[C@H](CCN)NC(=O)[C@@H](NC(=O)[C@H](CCN)NC(=O)c2ccc(-c3ccccc3)cc2)[C@@H](C)O)CCNC(=O)[C@H]([C@@H](C)O)NC(=O)[C@H](CCN)NC(=O)[C@H](CCN)NC1=O	broth microdilution	FADDI-PA070, polymyxin resistant, CAMHB	18 h, 37 °C		2 µg/mL
CC(C)C[C@@H]1NC(=O)[C@H](CC(C)C)NC(=O)[C@H](CCCCN)NC(=O)CSC[C@@H](C(N)=O)NC(=O)[C@H](CC(C)C)NC(=O)[C@H](CCCCN)NC(=O)[C@H](CCCCN)NC(=O)[C@@H]2CSCC(=O)N[C@@H](CCCCN)C(=O)N[C@@H](CC(C)C)C(=O)N[C@@H](CC(C)C)C(=O)N[C@@H](CCCCNC1=O)C(=O)N[C@@H](CCCCN)C(=O)N[C@@H](CC(C)C)C(=O)N2		PAO1	18 h		> 256 µg/mL
Cc1ccc(C2OC(c3ccc(C)cc3)C(C)C(=NOCc3cn(-c4ccccc4)nn3)C2C)cc1 (stereo not drawn)	microbial growth, broth dilution	MTCC741	24 h		25 µg/mL
CC(C)[C@H](NC(=O)[C@H](CCCCN)NC(=O)[C@H](CCCNC(=N)N)NC(=O)CNC(=O)[C@H](C)NC(=O)[C@H](CC(N)=O)NC(=O)[C@H](CCCNC(=N)N)NC(=O)[C@@H](NC(=O)[C@H](CCCCN)NC(=O)[C@H](CC(=O)O)NC(=O)[C@@H](NC(=O)[C@@H](NC(=O)[C@H](CCCNC(=N)N)NC(=O)[C@H](CCCNC(=N)N)NC(=O)[C@H](Cc1c[nH]c2ccccc12)NC(=O)[C@H](Cc1c[nH]c2ccccc12)NC(=O)CN)[C@@H](C)O)C(C)C)C(C)C)C(=O)O		ATCC 27853	18 h, 37 °C		> 256 µg/mL
CC[C@H](C)[C@H](NC(=O)[C@@H](CCCNC(=N)N)NC(=O)[C@H](CCCNC(=N)N)NC(=O)[C@@H]1CCCN1C(=O)[C@H](Cc1c[nH]c2ccccc12)NC(=O)[C@H](CCCNC(=N)N)NC(=O)[C@@H]1CCCN1C(=O)[C@H](CCCNC(=N)N)NC(=O)[C@@H]1CCCN1C(=O)[C@H](CC(C)C)NC(=O)[C@H](Cc1ccc(O)cc1)NC(=O)[C@@H]1CCCN1C(=O)[C@@H]1CCCN1C(=O)[C@H](CCCCN)NC(=O)[C@H](CC(=O)O)NC(=O)[C@@H](N)C(C)C)C(=O)N[C@@H](Cc1ccc(O)cc1)C(=O)N[C@@H](CC(N)=O)C(=O)N[C@H](CCCNC(=N)N)C(N)=O	broth microdilution	DSM 1117	18 h		128 µg/mL
CC(=O)OCc1cc(-c2nc3ccccc3n(-c3ccc([N+](=O)[O-])cc3[N+](=O)[O-])c2=O)nn1-c1ccccc1	microbial growth	MDR			125 µg/mL
CC(C)(C)c1ccc(COc2cc3c(=O)c(C(=O)NCCNCCO)cn(Cc4ccccc4)c3cc2Cl)cc1		ATCC 27853		≥80% growth inhibition	< 0.25 µg/mL
CCCCCCCCCCCCCCCc1cc(O)cc(O)c1	broth microdilution	PAO1 chloramphenicol-resistant	37 °C		> 64 µg/mL
CC(C)C[C@H](NC(=O)[C@H](CC(C)C)NC(=O)[C@H](CCCCN)NC(=O)CNC(=O)[C@H](CC(C)C)NC(=O)[C@H](CC(C)C)NC(=O)[C@H](CO)NC(=O)[C@H](CC(C)C)NC(=O)[C@H](CC(C)C)NC(=O)[C@@H]1CCCN1C(=O)[C@H](CC(C)C)NC(=O)[C@H](CC(C)C)NC(=O)CN)C(N)=O	broth microdilution				> 100 µM
CC(C)C[C@@H]1NC(=O)[C@H](CCN)NC(=O)CSC[C@@H](C(=O)N[C@@H](CCN)C(N)=O)NC(=O)[C@H](CC(C)C)NC(=O)[C@H](CC(C)C)NC(=O)[C@H](CC(C)C)NC(=O)[C@@H]2CSCC(=O)N[C@@H](CCN)C(=O)N[C@@H](CC(C)C)C(=O)N[C@@H](CCN)C(=O)N[C@@H](CCCCNC(=O)[C@H](CCN)NC1=O)C(=O)N[C@@H](CCN)C(=O)N[C@@H](CC(C)C)C(=O)N[C@@H](CC(C)C)C(=O)N2		PAO1	18 h		64 µg/mL
CC[C@H](C)[C@H](NC(=O)[C@H](C)NC(=O)[C@@H](NC(=O)[C@H](CC(=O)O)NC(=O)[C@H](CCCCN)NC(=O)[C@H](CO)NC(=O)[C@@H](NC(=O)[C@H](CC(N)=O)NC(=O)[C@H](C)NC(=O)[C@@H](NC(=O)[C@H](CCC(=O)O)NC(=O)[C@H](CCCCN)NC(=O)[C@@H](NC(=O)[C@@H](NC(=O)[C@H](Cc1c[nH]cn1)NC(=O)[C@H](CCCCN)NC(=O)[C@@H](NC(=O)[C@H](CCCCN)NC(=O)[C@H](CCCCN)NC(=O)[C@@H](NC(=O)[C@H](CC(C)C)NC(=O)[C@H](CCCCN)NC(=O)[C@H](CC(N)=O)NC(=O)[C@H](Cc1ccccc1)NC(=O)[C@H](CCCNC(=N)N)NC(=O)[C@H](CCCCN)NC(=O)[C@H](CCCNC(=N)N)NC(=O)[C@H](Cc1ccccc1)NC(=O)CN)C(C)C)C(C)C)[C@@H](C)O)[C@@H](C)CC)[C@@H](C)O)C(C)C)C(C)C)C(=O)N[C@H](C(=O)N[C@@H](C)C(=O)NCC(=O)N[C@@H](CO)C(=O)NCC(=O)N[C@H](C(=O)N[C@@H](C)C(=O)N[C@H](C(=O)NCC(=O)N[C@@H](C)C(=O)N[C@@H](C)C(=O)N[C@@H](CCSC)C(N)=O)C(C)C)C(C)C)C(C)C	broth microdilution	ATCC 27853, CAMHB			8 µg/mL
CC(C)[C@@H]1NC(=O)[C@@H]2CCCN2C(=O)[C@@H](C)NC(=O)[C@H](CO)NC(=O)[C@H](C)NC(=O)[C@H](C(C)(C)C)NC(=O)[C@H](CCO)NC(=O)[C@H](Cc2c[nH]c3ccccc23)NC(=O)[C@H](CCO)NC(=O)[C@@H](CCN)NC(=O)[C@H](CCC(N)=O)NC(=O)[C@H](CCN)NC(=O)[C@H](Cc2ccc(O)cc2)NC(=O)[C@H]([C@@H](C)O)NC1=O	broth microdilution	ATCC 27853, CAMHB with polysorbate-80	16 h		> 64 µg/mL

Excerpt of the above:
SMILES	test	test system	setting	how to read	MIC
CCCCCCCCCCCCCCCc1cc(O)cc(O)c1	broth microdilution	PAO1 chloramphenicol-resistant	37 °C		> 64 µg/mL
Cc1ccc(C2OC(c3ccc(C)cc3)C(C)C(=NOCc3cn(-c4ccccc4)nn3)C2C)cc1 (stereo not drawn)	microbial growth, broth dilution	MTCC741	24 h		25 µg/mL
